# Assay results pooled from the literature.
# Parts stem from different laboratories: compare values within a part only. “And” joins repeats or separate records; there may be more than shown.

# Study 1
# Target: TATA-box-binding protein 1 (TBP1, Arabidopsis thaliana, UniProt P28147, residues 1-200, full length assumed)
# Technique: protein-binding microarray
# Form: double-stranded DNA, one strand shown
# Medium: in vitro
# Tested at: not given
# Setting: k-mer, scored over probes, only values ≥0.25
# Direction: higher = stronger binding
# Residues (chain): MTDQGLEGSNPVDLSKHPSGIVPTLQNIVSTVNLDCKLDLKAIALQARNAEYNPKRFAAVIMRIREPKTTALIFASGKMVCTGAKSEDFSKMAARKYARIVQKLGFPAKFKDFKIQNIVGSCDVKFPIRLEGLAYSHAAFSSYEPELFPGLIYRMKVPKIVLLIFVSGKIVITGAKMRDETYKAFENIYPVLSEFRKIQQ
Strand,E-score
CATTTAA,0.397
TATTTGA,0.274
ATATTGG,0.335
TAATCTA,0.273
ATAATGG,0.294
AAAGATA,0.267
ATAAATC,0.367

# Study 2
# Target: Sal-like protein 4, full length isoform A (SALL4, Homo sapiens, UniProt Q9UJQ4, residues 1-1053)
# Sequence of UniProt Q9UJQ4 (whole entry, looked up): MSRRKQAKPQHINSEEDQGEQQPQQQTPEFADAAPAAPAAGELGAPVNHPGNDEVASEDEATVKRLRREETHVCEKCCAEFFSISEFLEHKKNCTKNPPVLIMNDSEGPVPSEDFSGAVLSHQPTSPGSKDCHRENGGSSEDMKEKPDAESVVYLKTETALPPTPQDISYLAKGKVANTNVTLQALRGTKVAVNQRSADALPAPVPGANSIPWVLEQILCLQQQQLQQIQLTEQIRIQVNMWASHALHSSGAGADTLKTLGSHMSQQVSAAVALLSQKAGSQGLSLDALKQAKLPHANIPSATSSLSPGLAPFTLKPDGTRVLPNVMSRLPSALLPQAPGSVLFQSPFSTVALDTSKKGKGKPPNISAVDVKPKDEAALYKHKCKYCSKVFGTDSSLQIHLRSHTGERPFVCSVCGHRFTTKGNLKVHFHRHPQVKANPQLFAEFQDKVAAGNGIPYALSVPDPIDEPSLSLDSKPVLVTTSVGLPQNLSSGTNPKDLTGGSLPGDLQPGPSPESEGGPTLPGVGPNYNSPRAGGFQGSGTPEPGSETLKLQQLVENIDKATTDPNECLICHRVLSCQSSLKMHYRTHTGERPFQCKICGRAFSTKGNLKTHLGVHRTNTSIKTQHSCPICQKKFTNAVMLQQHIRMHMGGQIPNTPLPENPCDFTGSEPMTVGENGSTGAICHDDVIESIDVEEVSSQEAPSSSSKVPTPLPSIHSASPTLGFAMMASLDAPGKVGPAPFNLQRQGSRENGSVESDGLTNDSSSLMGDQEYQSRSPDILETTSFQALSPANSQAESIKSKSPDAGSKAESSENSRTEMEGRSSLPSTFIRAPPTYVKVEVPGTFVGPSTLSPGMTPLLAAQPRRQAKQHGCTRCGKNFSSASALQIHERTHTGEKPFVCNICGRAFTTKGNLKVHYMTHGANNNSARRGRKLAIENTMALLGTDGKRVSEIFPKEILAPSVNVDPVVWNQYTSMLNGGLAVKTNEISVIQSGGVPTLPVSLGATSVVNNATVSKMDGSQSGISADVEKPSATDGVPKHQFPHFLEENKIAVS
# Technique: universal PBM
# Form: double-stranded DNA, one strand shown
# Medium: in vitro
# Tested at: 600 nM
# Setting: 8-mer, flanks averaged, mean of replicates
# Direction: higher = stronger binding
Strand,E-score
CCAGATGG,-0.304
GTAGCCGA,-0.215
TACTATCA,0.183
CACCCCGC,-0.181
ATGGACGG,0.00185
GTCAGGTA,-0.0664
ATCATACG,0.207
CAGCGGAA,-0.161

# Study 3
# Target: Replicase polyprotein 1ab, main protease (rep, Severe acute respiratory syndrome coronavirus 2, UniProt P0DTD1)
# Read-out: enzyme activity
# Action: inhibitor
# Tested at: 20 µM
# Setting: hit confirmation, with DTT
SMILES,inhibition
CC1(C)C(/C=C/C=C/C=C/C=C2\N(CCCCS(=O)(=O)[O-])c3ccc4ccccc4c3C2(C)C)=[N+](CCCCS(=O)(=O)[O-])c2ccc3ccccc3c21.[Na+],34%
O=c1cc(-c2ccccc2)oc2cc(O)c(O)c(O)c12,-20.1% and 95.4%
CC(CN1CC(=O)NC(=O)C1)N1CC(=O)NC(=O)C1 (stereo not shown),9.8%

# Study 4
# Target: Ras GTPase-activating protein-binding protein 1, C-terminal RGG region (G3BP1, Homo sapiens, UniProt Q13283)
# Sequence of UniProt Q13283 (whole entry, looked up): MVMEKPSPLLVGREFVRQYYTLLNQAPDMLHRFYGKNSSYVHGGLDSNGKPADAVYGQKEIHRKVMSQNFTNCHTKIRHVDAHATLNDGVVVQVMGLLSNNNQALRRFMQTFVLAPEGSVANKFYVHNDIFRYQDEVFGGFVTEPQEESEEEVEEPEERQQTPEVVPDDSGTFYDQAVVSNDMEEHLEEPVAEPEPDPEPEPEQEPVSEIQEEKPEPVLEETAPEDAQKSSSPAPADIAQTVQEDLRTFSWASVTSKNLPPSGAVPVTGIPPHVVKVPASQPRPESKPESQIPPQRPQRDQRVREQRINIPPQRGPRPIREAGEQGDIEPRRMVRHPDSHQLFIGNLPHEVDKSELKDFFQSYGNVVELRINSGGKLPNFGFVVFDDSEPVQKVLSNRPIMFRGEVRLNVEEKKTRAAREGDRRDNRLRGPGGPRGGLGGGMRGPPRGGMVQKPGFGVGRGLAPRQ
# Technique: RNA Bind-n-Seq
# Form: RNA
# Medium: in vitro
# Tested at: 1 µM
# Setting: whole 134-nt RNA, ends assumed
# Added: 150 mM KCl
# Baseline: input library
# Direction: higher = stronger binding
# All sequences stand within: GGGAGUUCUACAGUCCGACGAUC … UGGAAUUCUCGGGUGUCAAGG
Strand,log2 enrichment
AAGUCCUGUGCUACACAUCGUAUGUACCGAAUCGGGUUUUUUUGGGAAAGGGUGGGAAAGUAUUAUGUUACGCCGUUCGGAUCUGCACUU,0.869
GCAGGAAGUAAAAACAAAUGGAAAUGAUUCGGAUAGUGGCAGGGGUGGGGGUUGCUAAGGAAAGGGUGGGAUGGGAGUGGGUAAAGAGUU,1.88
UAGGUGUUAUCUUCAGGAAGGCACACUGGACCUGCUAAAUUAACAAAUGGAAAGAAAGCGUAAGUACUUGAAGACGUUUACAACUUCAGA,-2.06
UAACUUUAGAGGAGGAUCUGAUGGAUAUGGCAGUGGACGUGGAUUUGGGGAUGGCUAUAAUGGGCAUGGAGGAGGACCUGGAGGUGGCAA,-0.97
AGUCCUGUGCUACACAUCGUAUGUACCGAAUCGGUUUUUGGUUUUUGGAAAAAAAGGAAAGUAUUAUGUUACGCCGUUCGGAUCUGCACU,-2
AGUCCUGUGCUACACAUCGUAUGUACCGAAUCGGGAGGGAAAAAAAGGGAAAAAGGGAAAGUAUUAUGUUACGCCGUUCGGAUCUGCACU,0.00591
CUGUGCUACACAUCGUAUGUACCGAAUCAAACCCCCCCAAACCCCCCCAAAUUUUUUUAAAAAAGUAUUAUGUUACGCCGUUCGGAUCUG,-1.03
AGUCCUGUGCUACACAUCGUAUGUACCGAAUCGGAAAGGUUUUUUUGGUUUUUUUGGAAAGUAUUAUGUUACGCCGUUCGGAUCUGCACU,-2.5

# Study 5
# Cell line: HEK-293T/ACE2
# Tested at: concentration not given
# Time: 16 (unit not given)
# Baseline: vehicle
Structure (SMILES),viability
CC(C)(C)NCC(O)c1cc(O)cc(O)c1 (stereo not shown),105%
C[C@H](Cc1cc2c(c(C(N)=O)c1)N(CCCO)CC2)NCCOc1ccccc1OCC(F)(F)F,99.3%
Cc1ccc(N(CC2=NCCN2)c2cccc(O)c2)cc1,102%
CCCCNc1cc(C(=O)O)cc(S(N)(=O)=O)c1Oc1ccccc1,99.8%

# Study 6
# Target: Replicase polyprotein 1ab, polymerase (rep, Severe acute respiratory syndrome coronavirus 2, UniProt P0DTD1)
# Read-out: enzyme activity
# Action: inhibitor
# Tested at: 20 µM
SMILES,inhibition [%]
CCCCNNC(=O)c1ccc(Br)cc1,2.02
COc1c2occc2c(OC)c2c(=O)cc(C)oc12,4.54
COc1cccc2c1C(=O)c1c(O)c3c(c(O)c1C2=O)C[C@@](O)(C(=O)CO)C[C@@H]3O[C@H]1C[C@H](N2CCO[C@H](OC)C2)[C@H](O)[C@H](C)O1,50.7
c1ccc(OCc2ccc(CCCN3CCOCC3)cc2)cc1,-13.1
CCc1oc2ccccc2c1C(=O)c1cc(Br)c(O)c(Br)c1,17.5
O=c1[nH]cnc2c1ncn2[C@H]1CC[C@@H](CO)O1,-2.75
N=C(N)NCCCC[C@@H]1NC(=O)CCSSC[C@@H](C(N)=O)NC(=O)[C@@H]2CCCN2C(=O)[C@H](Cc2c[nH]c3ccccc23)NC(=O)[C@H](CC(=O)O)NC(=O)CNC1=O,-6.61
COCCCOc1ccnc(C[S+]([O-])c2nc3ccccc3[nH]2)c1C (stereo not shown),1.12
CCOC(=O)[C@]12CC1/C(=N\O)c1ccccc1O2 (mixture of isomers),3.25
CC(C)c1cc(C(C)C)c(-c2csc(N(CCN(C)C)Cc3cccnc3)n2)c(C(C)C)c1,4.23
CN(C)[C@@H]1CCc2[nH]c3ccc(NC(=O)c4ccc(F)cc4)cc3c2C1,29.6
CN1CC[C@@]2(C)c3cc(OC(=O)Nc4ccccc4)ccc3N(C)[C@@H]12,-1.9
O=C(Nc1cccc2c(=O)cc(-c3nnn[nH]3)oc12)c1ccc(OCCCCc2ccccc2)cc1,-4.88
Cc1cccc(-c2[nH]c(CNc3ccccc3F)nc2-c2ccc3ncnn3c2)n1,-3.57
CCN(CC)CCCCN1c2ccccc2Oc2ccc(Cl)cc21,-0.48
C=CCC1(CC(C)C)C(=O)NC(=O)NC1=O,-2.52
O=C(/C=C/c1ccc2ccc(C(F)(F)F)cc2n1)c1ccncc1,0
Nc1ccc(C(=O)O)c(O)c1,2.31
COc1cc(NC(=O)c2ccc(-c3ccc(Cl)cc3)o2)cc(OC)c1,2.86
C=CC(C)(O)CCC=C(C)C (stereo not shown),-3.17
Cc1cc(-c2ccc3c(c2)CC[C@H]3N2CC3(CCN(C(=O)Cc4cn5cc(C)sc5n4)CC3)C2)ncn1,7.17
O=c1c(-c2ccccc2)c1-c1ccccc1,2.49
CCC(=O)c1cc(-c2ccc(Cl)cc2)n(-c2ccc(S(N)(=O)=O)cc2)c1C,1.1
COCC[n+]1c2c(n(Cc3cnccn3)c1C)C(=O)c1ccccc1C2=O,17.1
O=C(CCCCC(=O)Nc1c(I)cc(I)c(C(=O)O)c1I)Nc1c(I)cc(I)c(C(=O)O)c1I,-3.31
